Assay results from different studies.
± gives the spread as reported.
Organism: Plasmodium falciparum

Compound | observed | action | method | strain | time | setting | IC50
CC(=O)c1c(O)c(C)c(O)c2c1OC1=CC(=O)C(=C(C)NCCNc3ccnc4cc(Cl)ccc34)C(=O)C12C (stereo not shown) | parasite growth |  | 3H-hypoxanthine incorporation | K1 |  | asexual erythrocytic stages | 0.167 µg/mL
COc1cc(C)c(-c2ccc(O)c3c2C[C@@H](C)N[C@@H]3C)c2cccc(O)c12 (single isomer, unassigned) | parasite growth |  | SYBR Green | W2 |  | drug-resistant strain, blood stage | 560 nM
C[C@H]1[C@@H](OCc2cn(-c3cc4ccc(O)cc4oc3=O)nn2)O[C@@H]2O[C@@]3(C)CC[C@H]4[C@H](C)CC[C@@H]1[C@@]24OO3 | parasite growth |  |  | 3D7 | 72 h | blood stage | 0.8 nM
CCOC(=O)c1ccc2c(c1)C1CC(C)(N2)c2c(C)nc3ccc(C(=O)OCC)cc3c21 (stereo not shown) | parasite growth | inhibitor | SYBR Green I | Cam3.1 R539T (MRA-1240) |  |  | 2700 nM
CC(=O)c1c(O)c(C)c(O)c2c1OC1=CC(=O)C(=C(C)NNc3ccnc4cc(Cl)ccc34)C(=O)C12C (stereo not shown) | parasite growth |  | 3H-hypoxanthine incorporation | K1 |  | asexual erythrocytic stages | 1.1 µg/mL
O[C@]12C=C(c3nccc4c3[nH]c3ccccc34)[C@@H]3CCN(CCCC/C=C\CC1)C[C@@]31C[C@@H]3/C=C\CCCCN3[C@H]12 |  |  |  | W2, chloroquine-resistant | 72 h |  | 0.0258 ± 0.0075 µg/mL
CCCCOC1C(C)C2C(C=CC3C(C)C=CC=CC(C)OC(=O)C(C)C(=O)C(Cl)(Cl)C(=O)C32)CC1(C)O (stereo not shown) | parasite growth |  | ELISA | DD2 |  | drug-resistant strain, blood stage | > 11000 nM
O[Si](CCCN1CCCCC1)(c1ccc(F)cc1)C1CCCCC1 (stereo not shown) | parasite growth |  | SYBR Green | FCB |  |  | 22 nM
C[OH+][Cu-2]12[O]C(c3cn(-c4ccccc4)nc3-c3ccc(Br)cc3)=N[N+]1=C(C)c1c(cc(C)oc1=O)[O]2 (stereo not shown) |  |  | SYBR Green I fluorescence | 3D7 | 72 h |  | 15400 nM
O[C@@H](CNCCNC(c1ccccc1)c1ccccc1)c1cc(Cl)cc2c1-c1ccc(Cl)cc1C2 | parasite growth |  | SYBR Green | W2 | 48 h | drug-resistant strain, blood stage | 2.6 nM
C[C@@H]1CC[C@H]2[C@@H](C)C(=O)O[C@@H]3O[C@@]4(C)CC[C@@H]1[C@]32OO4 | parasite growth |  |  |  | 72 h |  | 6.02 ± 0.43 nM
COc1c(Br)cc(CCNC2=CC3=NCCc4c[nH]c(c43)C2=O)cc1Br | parasite growth |  | SYBR Green | 3D7 |  | blood stage | 110 nM
CC1CCC(C(C)(C)C(=O)Nc2ccc(Oc3ccccc3)cc2)CC1 (stereo not shown) | parasite growth |  | SYBR Green | FCB |  |  | 202 nM
O=C1C(=O)c2[nH]cc3c2C(=C1Cl)NCC3 | parasite growth |  | SYBR Green | 3D7 |  | blood stage | 14900 nM
CC(=O)c1c(O)c(C)c(O)c2c1OC1=CC(=O)C(=C(C)NCCCC(=O)OC3OC4OC5(C)CCC6C(C)CCC(C3C)C46OO5)C(=O)C12C (stereo not shown) | parasite growth |  | 3H-hypoxanthine incorporation | K1 |  | asexual erythrocytic stages | 0.001 µg/mL
COCCN(C)C(C)C(=O)NC(Cc1ccc(-c2ccccc2)cc1)B(O)O (stereo not shown) | parasite growth |  |  | Cam3.II β5 A20S WLL-resistant | 72 h |  | 439 ± 47 nM
C[C@@H]1C(=O)O[C@@H](C)/C=C/C=C\[C@@H](C)[C@@H]2C=C[C@@H]3C[C@@]4(C)O[C@H]4[C@@H](C)[C@H]3[C@@H]2C(=O)C(Cl)(Cl)C1=O | parasite growth |  | ELISA | DD2 |  | drug-resistant strain, blood stage | 154 nM
COc1ccc2cc1Oc1cc3c(cc1OC)CCN(C)C3Cc1ccc(cc1)Oc1c(O)c(OC)cc3c1C(C2)N(C)CC3 (stereo not shown) | parasite growth | inhibitor | SYBR Green I | 3D7 |  |  | 500 nM
C[OH+][Cu-2]12[O]C(c3cn(-c4ccccc4)nc3-c3ccc(Cl)cc3)=N[N+]1=C(C)c1c(cc(C)oc1=O)[O]2 (stereo not shown) |  |  | SYBR Green I fluorescence | 3D7 | 72 h |  | 15700 nM
COCCN(C)CC(=O)NC(Cc1ccc(-c2ccccc2)cc1)B(O)O (stereo not shown) |  |  | [3H]-hypoxanthine incorporation | Dd2, ELQ-300-resistant |  |  | 116 ± 51 nM
COc1cc2c3cc1Oc1cc(ccc1O)CC1c4c(cc(OC)c(O)c4Oc4ccc(cc4)CC3N(C)CC2)CCN1C (stereo not shown) | parasite growth | inhibitor | SYBR Green I | Cam3.1 R539T (MRA-1240) |  |  | 2800 nM
COC1C(C)C2C(C=CC3C(C)C=CC=CC(C)OC(=O)C(C)C(=O)C(Cl)(Cl)C(=O)C32)CC1(C)O (stereo not shown) | parasite growth |  | ELISA | DD2 |  | drug-resistant strain, blood stage | > 11000 nM
CCN(CC)CCCC(C)Nc1ccnc2cc(Cl)ccc12 (stereo not shown) | parasite growth |  |  | Dd2 kelch13 R539T, artemisinin resistant | 72 h | ring stage | 68.52 ± 0.09 nM
C[C@H]1[C@H](OC(=O)CCC(=O)OCc2nnn(-c3cc4ccc(O)cc4oc3=O)c2COC(=O)CCC(=O)O[C@@H]2O[C@@H]3O[C@@]4(C)CC[C@H]5[C@H](C)CC[C@@H]([C@H]2C)[C@@]35OO4)O[C@@H]2O[C@@]3(C)CC[C@H]4[C@H](C)CC[C@@H]1[C@@]24OO3 | parasite growth |  |  | 3D7 | 24 h | blood stage | 8.9 nM
Cc1ccc(S(=O)(=O)n2cc3c4c2C(=O)C(N)=CC4=NCC3)cc1 | parasite growth |  | SYBR Green | 3D7 |  | blood stage | 845 nM
Cc1nc2ccc(F)cc2c2c1C1(C)CC2c2cc(F)ccc2N1 (stereo not shown) | parasite growth | inhibitor | SYBR Green I | Cam3.1 R539T (MRA-1240) |  |  | 181 nM
CC1=N[C@H](C)Cc2c(-c3ccc(C)cc3)ccc(O)c21 | parasite growth |  | SYBR Green | W2 |  | drug-resistant strain, blood stage | 960 nM
C[C@H]1[C@H](OC(=O)CCC(=O)OCc2cn(-c3cc4ccc(O)cc4oc3=O)nn2)O[C@@H]2O[C@@]3(C)CC[C@H]4[C@H](C)CC[C@@H]1[C@@]24OO3 | parasite growth |  |  | 3D7 | 72 h | blood stage | 62.7 nM

A few entries again:
Compound | observed | action | method | strain | time | setting | IC50
CC(=O)c1c(O)c(C)c(O)c2c1OC1=CC(=O)C(=C(C)NCCNc3ccnc4cc(Cl)ccc34)C(=O)C12C (stereo not shown) | parasite growth |  | 3H-hypoxanthine incorporation | K1 |  | asexual erythrocytic stages | 0.167 µg/mL
O[C@]12C=C(c3nccc4c3[nH]c3ccccc34)[C@@H]3CCN(CCCC/C=C\CC1)C[C@@]31C[C@@H]3/C=C\CCCCN3[C@H]12 |  |  |  | W2, chloroquine-resistant | 72 h |  | 0.0258 ± 0.0075 µg/mL
Cc1nc2ccc(F)cc2c2c1C1(C)CC2c2cc(F)ccc2N1 (stereo not shown) | parasite growth | inhibitor | SYBR Green I | Cam3.1 R539T (MRA-1240) |  |  | 181 nM
COc1ccc2cc1Oc1cc3c(cc1OC)CCN(C)C3Cc1ccc(cc1)Oc1c(O)c(OC)cc3c1C(C2)N(C)CC3 (stereo not shown) | parasite growth | inhibitor | SYBR Green I | 3D7 |  |  | 500 nM
